Published values from different studies.
Parts stem from different laboratories: compare values within a part only.

Set 1 — method: protein-binding microarray; molecule type: double-stranded DNA, one strand shown; matrix: in vitro; tested at: 2200 nM top; setting: 60-bp whole probe; added: salmon DNA 0.4 mg/ml; baseline: random background probes; direction: higher = stronger binding; all sequences stand within: GCCTAGCAC … GTCTTGATTCGCTTGACGCTGCTG
Target: Interferon regulatory factor 7, full length, phosphomimetic (IRF7, Homo sapiens, UniProt Q92985, residues 1-503, S471D/S472D/S475D/S476D/S477D/S483D/S484D/S487D)
Target sequence (chain): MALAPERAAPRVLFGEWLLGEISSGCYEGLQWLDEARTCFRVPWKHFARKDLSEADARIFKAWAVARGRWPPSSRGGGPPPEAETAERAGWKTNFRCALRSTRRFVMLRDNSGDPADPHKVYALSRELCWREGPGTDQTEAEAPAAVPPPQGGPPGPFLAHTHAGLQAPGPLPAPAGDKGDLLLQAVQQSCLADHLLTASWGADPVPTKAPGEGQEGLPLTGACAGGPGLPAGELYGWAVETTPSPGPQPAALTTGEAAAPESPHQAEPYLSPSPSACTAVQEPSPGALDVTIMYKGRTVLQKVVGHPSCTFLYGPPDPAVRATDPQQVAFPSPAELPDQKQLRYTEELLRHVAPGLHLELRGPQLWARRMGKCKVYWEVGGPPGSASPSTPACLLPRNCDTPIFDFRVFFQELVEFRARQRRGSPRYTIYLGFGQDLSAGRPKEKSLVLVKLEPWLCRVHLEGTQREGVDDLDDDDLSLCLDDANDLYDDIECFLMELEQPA
For `CTTTATGTACTCTCTCCATGTGTGCTA`, “fitted relative affinity” read 1.74 z-score.
For `CAGAAAATAGAAACTCGTGTTGTGCTA`, “fitted relative affinity” read 0.795 z-score.
`TTAGGTCTCGGACTGGGTGAGTGCTAG`: “fitted relative affinity” -0.397 z-score.
`GACGGTTACCTTATCCTGACGTGCTAG`: “fitted relative affinity” 0.863 z-score.
For `GATGGTTTCCTTTTCCTGACGTGCTAG`, “fitted relative affinity” read 5.3 z-score.
`CACGGACTGGACACTGGGGACGTGCTA`: “fitted relative affinity” -0.825 z-score.
`TTAGGTCTCGGTTTCGGTCAGTGCTAG`: “fitted relative affinity” 4.12 z-score.
For `TTAGGTTTCGGTCTCGGTTAGTGCTAG`, “fitted relative affinity” read 6.63 z-score.
Under “fitted relative affinity”, `AACGGACTGGGTATCGGGACGTGCTAG` is recorded as -0.683 z-score.
Under “fitted relative affinity”, `CACGATATCAGTATCGAGACGTGCTAG` is recorded as 0.546 z-score.
`TTAGATATAAGTTTCGATTAGTGCTAG`: “fitted relative affinity” 4.76 z-score.
For `TTAGGTATCGACTTTTGGTTAGTGCTA`, “fitted relative affinity” read 0.691 z-score.
`TTAGGACAGGGTCTCGGTTAGTGCTAG`: “fitted relative affinity” -0.406 z-score.
`TCAGTTACCCACCTCAGACTGTGCTAG` — result for “fitted relative affinity”: 1.26 z-score.
Under “fitted relative affinity”, `GACGCTATCGGTTTCGGGACGTGCTAG` is recorded as 4.37 z-score.
`GTGAGAAATAAGTTTCTTTTGTGCTAG` — result for “fitted relative affinity”: 0.107 z-score.
Under “fitted relative affinity”, `TCATCTACAGGGTTTCACACTGTGCTA` is recorded as 0.925 z-score.

Set 2 — method: protein binding microarray; molecule type: double-stranded DNA, one strand shown; matrix: in vitro; tested at: not given; baseline: not given; direction: higher = stronger binding
Target: Histone acetyltransferase KAT6A, winged helix 2, GST fusion (KAT6A, Homo sapiens, UniProt Q92794, residues 85-181)
Setting: 8-mer, flanks averaged, mean of 2 arrays, mostly near background
Construct (chain): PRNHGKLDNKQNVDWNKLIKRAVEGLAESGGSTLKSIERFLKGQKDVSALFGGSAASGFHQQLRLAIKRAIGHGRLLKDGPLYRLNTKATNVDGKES
With `GGGAGTCA` the E-score was -0.132.
For `ATTCGTCG`, the E-score was 0.158.
`CAATATAG` has an E-score of -0.0784.
With `ATTCATCA` the E-score was -0.0224.
`TACATGCA` has an E-score of -0.0703.
With `GCGCGTAA` the E-score was 0.0395.
For `CAAGCCGA`, the E-score was 0.244.
The E-score of `AAGACTCC` is reported as -0.142.
With `GAACGCCA` the E-score was 0.0598.
For `GGTCGCCA`, the E-score was -0.048.
`ATAATCGC` has an E-score of 0.0739.
`AGGATGAT` has an E-score of -0.00795.
With `AACCTTTA` the E-score was -0.211.
For `ATCGAAGC`, the E-score was 0.0852.
For `GCTATCAA`, the E-score was 0.185.
With `GCTCTCAA` the E-score was 0.248.
`GGCGAATA` has an E-score of 0.125.
With `CGTTCAAG` the E-score was -0.0276.

Set 3 — method: competition protein-binding microarray; molecule type: double-stranded DNA, one strand shown; matrix: in vitro; tested at: 2 µM; added: Cbf1 competitor, 0.05 µM; direction: higher = stronger binding
Target: Phosphate system positive regulatory protein PHO4, full length, GST-tagged (PHO4, Saccharomyces cerevisiae, UniProt P07270, residues 1-312)
Setting: whole 60-bp probe, lowest competitor level
Target sequence (chain): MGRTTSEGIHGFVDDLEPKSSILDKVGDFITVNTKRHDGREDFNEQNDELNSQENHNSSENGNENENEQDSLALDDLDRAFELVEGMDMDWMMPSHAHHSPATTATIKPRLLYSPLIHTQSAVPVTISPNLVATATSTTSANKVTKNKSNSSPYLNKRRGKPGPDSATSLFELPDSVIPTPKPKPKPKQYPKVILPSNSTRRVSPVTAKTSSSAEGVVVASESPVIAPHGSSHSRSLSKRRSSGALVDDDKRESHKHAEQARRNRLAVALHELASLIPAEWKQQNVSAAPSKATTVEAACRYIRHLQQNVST
`TTGTACGATTGTTTTCACGTGTTTTTACATTTTCTGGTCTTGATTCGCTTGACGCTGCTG` has a fluorescence intensity of 13500 a.u.
For `AACCAGTCTTTCATCACCGTGATGGTAAATTATATAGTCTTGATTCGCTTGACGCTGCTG`, the fluorescence intensity was 6000 a.u.
The fluorescence intensity of `TAAGCACCAAATGGAGACGTGGCCGCACCATAATCAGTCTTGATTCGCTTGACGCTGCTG` is reported as 5490 a.u.
For `CTTCTGTAAATTTGGAAGGTGGGTGGACGCGCCCCGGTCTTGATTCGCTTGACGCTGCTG`, the fluorescence intensity was 4320 a.u.
The fluorescence intensity of `ATGTCCATTCCCTGGCACGTGATGGCGAGTACTTCCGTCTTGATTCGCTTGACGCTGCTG` is reported as 19100 a.u.
With `AATAGGCGCCAAGTTTCCGTGGGTAACTATGACTTTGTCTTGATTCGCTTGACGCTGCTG` the fluorescence intensity was 3430 a.u.
For `ATCTCTGTCAACTGCCTCGTGCTAAAAGCAGGATTGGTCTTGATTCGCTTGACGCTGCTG`, the fluorescence intensity was 11500 a.u.
The fluorescence intensity of `CAGCGAGAACATCACCACGGGCTATATAAATGGAAAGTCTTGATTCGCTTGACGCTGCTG` is reported as 8580 a.u.
The fluorescence intensity of `ATATCCAACATTTGGCCCGTGATGGCTTAAGCGACTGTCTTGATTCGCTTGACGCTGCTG` is reported as 5870 a.u.
The fluorescence intensity of `TTCTCTAAAAGCCATCACGTGACTCGTTGAATCACTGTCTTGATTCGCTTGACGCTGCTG` is reported as 14600 a.u.
For `AAAGCGGTAATTTGTAGCGTGGGTGCAGATATCTATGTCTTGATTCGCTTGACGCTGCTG`, the fluorescence intensity was 7850 a.u.
`ACAATGTTTCGACATCACCTGTTATGAAAAAAATATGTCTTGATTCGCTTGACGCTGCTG` gave a fluorescence intensity of 4030 a.u.
For `CGATTCGCTGCTCAACACATGGAGGGCCCAAAGACAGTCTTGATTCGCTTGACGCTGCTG`, the fluorescence intensity was 7370 a.u.
`GCCACCAACAATACCTTCGTGGGACATAGTTAAGTCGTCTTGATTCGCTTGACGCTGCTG` has a fluorescence intensity of 6840 a.u.
The fluorescence intensity of `AAGACTGTACATTCACACGGGAAACGAGAGAAAGAAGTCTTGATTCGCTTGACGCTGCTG` is reported as 5330 a.u.
The fluorescence intensity of `CATACCCAACCTTGACATGTGGGTGAAGATATTTGTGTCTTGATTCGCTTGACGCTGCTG` is reported as 13600 a.u.
With `CTTCTGTAAATTTGCTGGGTGGGTGGACGCGCCCCGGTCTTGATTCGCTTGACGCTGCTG` the fluorescence intensity was 4490 a.u.
`GTCTTGTCTCATTGTCACACCACTTTCCCCACTTCAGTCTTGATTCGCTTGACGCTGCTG` gave a fluorescence intensity of 5190 a.u.
With `CTTTCCCGATCTTGTCACCCTACTTTAGCACATTTGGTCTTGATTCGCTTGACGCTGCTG` the fluorescence intensity was 4010 a.u.
With `CTAACGAAGGTTTGTCACACTACTTACAAGCCAAGTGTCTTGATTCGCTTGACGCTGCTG` the fluorescence intensity was 4180 a.u.
With `GACGCTGAGCTCCATCACGGGCTACGCCAGCGCAGCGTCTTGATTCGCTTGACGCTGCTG` the fluorescence intensity was 4870 a.u.
The fluorescence intensity of `GTCTTGTCTCATTGGGCCGTGGGTGTCCCCACTTCAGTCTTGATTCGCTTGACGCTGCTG` is reported as 6080 a.u.
The fluorescence intensity of `CTAACGAAGGTTTGGCCAGTGGGTGACAAGCCAAGTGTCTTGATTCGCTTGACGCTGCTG` is reported as 3670 a.u.
With `TATTTAGATGTCGATGACGTGTGGAGCGTAAAAATTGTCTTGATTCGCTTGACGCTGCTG` the fluorescence intensity was 4740 a.u.
With `TATGGCAAAAATCGAAACGTGGGTAAGTTTCGAGCCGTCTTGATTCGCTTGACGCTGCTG` the fluorescence intensity was 13800 a.u.

Set 4 — method: universal PBM; molecule type: double-stranded DNA, one strand shown; matrix: in vitro; tested at: 600 nM; direction: higher = stronger binding
Target: Sal-like protein 4, full length isoform A (SALL4, Homo sapiens, UniProt Q9UJQ4, residues 1-1053)
Sequence of UniProt Q9UJQ4 (whole entry, looked up): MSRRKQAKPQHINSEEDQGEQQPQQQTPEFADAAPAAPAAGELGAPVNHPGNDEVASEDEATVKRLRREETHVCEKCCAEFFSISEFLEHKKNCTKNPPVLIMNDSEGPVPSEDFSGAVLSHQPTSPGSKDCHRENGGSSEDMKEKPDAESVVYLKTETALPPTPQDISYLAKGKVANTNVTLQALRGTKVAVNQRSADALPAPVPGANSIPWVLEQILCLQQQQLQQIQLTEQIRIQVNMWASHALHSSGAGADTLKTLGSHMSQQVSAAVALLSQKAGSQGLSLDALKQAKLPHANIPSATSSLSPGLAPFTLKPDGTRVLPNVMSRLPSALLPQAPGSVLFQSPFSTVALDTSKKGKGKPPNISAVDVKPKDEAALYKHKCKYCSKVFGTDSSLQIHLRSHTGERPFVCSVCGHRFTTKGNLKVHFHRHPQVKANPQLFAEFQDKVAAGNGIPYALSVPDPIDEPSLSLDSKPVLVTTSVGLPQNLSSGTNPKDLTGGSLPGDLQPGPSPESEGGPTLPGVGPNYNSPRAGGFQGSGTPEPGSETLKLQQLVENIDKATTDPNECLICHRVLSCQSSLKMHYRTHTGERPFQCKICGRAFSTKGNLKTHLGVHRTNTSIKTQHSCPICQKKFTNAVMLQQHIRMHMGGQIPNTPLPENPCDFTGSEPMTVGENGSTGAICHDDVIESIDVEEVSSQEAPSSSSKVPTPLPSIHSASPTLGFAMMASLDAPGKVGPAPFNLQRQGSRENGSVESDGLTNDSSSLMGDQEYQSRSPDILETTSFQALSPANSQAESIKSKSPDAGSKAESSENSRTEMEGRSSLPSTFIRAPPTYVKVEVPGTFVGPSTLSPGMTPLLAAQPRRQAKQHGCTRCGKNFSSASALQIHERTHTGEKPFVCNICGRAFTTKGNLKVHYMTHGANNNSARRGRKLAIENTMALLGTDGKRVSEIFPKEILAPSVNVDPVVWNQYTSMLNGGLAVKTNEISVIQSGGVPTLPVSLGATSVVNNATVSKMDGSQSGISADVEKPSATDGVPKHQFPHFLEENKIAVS
Setting: 8-mer, flanks averaged, mean of replicates
The E-score of `CCTCCAGG` is reported as -0.269.
`AAAGAGAA` gave an E-score of 0.11.
`ATCGCATA` gave an E-score of 0.189.
For `AAAATCCA`, the E-score was 0.258.
`AACGTAGC` gave an E-score of -0.04.
The E-score of `AGTGGAAC` is reported as 0.0567.
`ACAATTTG` gave an E-score of 0.155.
The E-score of `AACATCAC` is reported as 0.167.
For `ATGGGTCC`, the E-score was -0.0363.
`ACGTATGG` gave an E-score of 0.125.
With `AGGAATAC` the E-score was 0.169.
For `GAAGATTA`, the E-score was 0.207.
For `AGAGTATG`, the E-score was 0.0232.
`AGGTACTA` has an E-score of 0.121.
`CGACAATA` gave an E-score of 0.217.
`TCTTCTAA` gave an E-score of 0.119.
`AAGAGGTA` has an E-score of 0.0338.
With `CAGCTAGA` the E-score was -0.138.
`AAAGTTAT` has an E-score of 0.325.
`CTCCTTGC` gave an E-score of -0.117.
With `ACTTCCCT` the E-score was -0.108.
With `CAAGAAAC` the E-score was 0.0764.
With `GACCATAC` the E-score was -0.0312.
`AGTCTTTC` has an E-score of -0.075.
`ACCTGGCA` gave an E-score of -0.229.

A few entries again (set 3):
With `CTTCTGTAAATTTGCTGGGTGGGTGGACGCGCCCCGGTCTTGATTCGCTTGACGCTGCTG` the fluorescence intensity was 4490 a.u.
`GTCTTGTCTCATTGTCACACCACTTTCCCCACTTCAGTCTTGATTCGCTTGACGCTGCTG` gave a fluorescence intensity of 5190 a.u.
With `CTTTCCCGATCTTGTCACCCTACTTTAGCACATTTGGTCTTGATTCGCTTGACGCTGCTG` the fluorescence intensity was 4010 a.u.
With `CTAACGAAGGTTTGTCACACTACTTACAAGCCAAGTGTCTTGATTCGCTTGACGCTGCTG` the fluorescence intensity was 4180 a.u.
